Measurements collected from several papers.
Each line is one published result; not all experiments were run side by side.
PRSS1: Serine protease 1 (PRSS1, Homo sapiens, UniProt P07477)
NEU1: Sialidase-1 (NEU1, Homo sapiens, UniProt Q99519)
HLA class I histocompatibility antigen, A alpha chain: HLA class I histocompatibility antigen, A alpha chain (Homo sapiens, UniProt P04439)
F2: Prothrombin (F2, Homo sapiens, UniProt P00734)
Proteasome component C5/PSMB5 chymotrypsin-like site: Proteasome component C5/PSMB5, chymotrypsin-like site (Homo sapiens, UniProt P20618+P28074)
Chain of UniProt P28074 (whole entry, looked up): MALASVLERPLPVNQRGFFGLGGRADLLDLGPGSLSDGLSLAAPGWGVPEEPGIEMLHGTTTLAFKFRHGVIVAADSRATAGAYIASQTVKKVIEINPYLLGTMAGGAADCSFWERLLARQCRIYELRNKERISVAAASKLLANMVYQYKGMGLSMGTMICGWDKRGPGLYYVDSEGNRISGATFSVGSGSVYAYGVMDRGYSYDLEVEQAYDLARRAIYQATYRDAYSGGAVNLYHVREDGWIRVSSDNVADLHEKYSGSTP
Chain of UniProt P20618 (whole entry, looked up): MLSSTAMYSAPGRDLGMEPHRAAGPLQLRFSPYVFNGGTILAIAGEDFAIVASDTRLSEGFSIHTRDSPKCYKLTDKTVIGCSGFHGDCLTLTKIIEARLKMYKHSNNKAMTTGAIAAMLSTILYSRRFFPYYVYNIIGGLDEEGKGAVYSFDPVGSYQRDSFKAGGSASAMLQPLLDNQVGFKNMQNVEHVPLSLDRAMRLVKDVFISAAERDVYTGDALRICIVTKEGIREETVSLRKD
Chain of UniProt P27487 (whole entry, looked up): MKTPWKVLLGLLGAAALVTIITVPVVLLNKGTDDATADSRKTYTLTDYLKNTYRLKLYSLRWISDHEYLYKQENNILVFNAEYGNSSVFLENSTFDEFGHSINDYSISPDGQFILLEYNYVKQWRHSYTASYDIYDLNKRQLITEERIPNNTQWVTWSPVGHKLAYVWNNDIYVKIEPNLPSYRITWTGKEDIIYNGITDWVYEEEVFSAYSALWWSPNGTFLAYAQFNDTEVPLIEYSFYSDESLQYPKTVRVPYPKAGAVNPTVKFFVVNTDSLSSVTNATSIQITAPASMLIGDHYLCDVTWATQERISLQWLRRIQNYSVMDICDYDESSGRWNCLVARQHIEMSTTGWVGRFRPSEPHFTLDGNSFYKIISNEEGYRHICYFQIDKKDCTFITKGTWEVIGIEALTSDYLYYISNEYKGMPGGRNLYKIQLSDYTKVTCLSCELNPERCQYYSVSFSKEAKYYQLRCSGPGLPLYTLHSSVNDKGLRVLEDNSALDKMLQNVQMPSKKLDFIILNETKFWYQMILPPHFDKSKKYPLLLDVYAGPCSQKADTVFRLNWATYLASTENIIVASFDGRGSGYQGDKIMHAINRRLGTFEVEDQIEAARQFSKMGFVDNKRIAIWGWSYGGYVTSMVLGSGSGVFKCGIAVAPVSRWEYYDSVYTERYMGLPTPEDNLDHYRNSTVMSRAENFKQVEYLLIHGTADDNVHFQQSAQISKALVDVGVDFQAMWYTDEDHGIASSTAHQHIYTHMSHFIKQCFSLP
Chain of UniProt P42574 (whole entry, looked up): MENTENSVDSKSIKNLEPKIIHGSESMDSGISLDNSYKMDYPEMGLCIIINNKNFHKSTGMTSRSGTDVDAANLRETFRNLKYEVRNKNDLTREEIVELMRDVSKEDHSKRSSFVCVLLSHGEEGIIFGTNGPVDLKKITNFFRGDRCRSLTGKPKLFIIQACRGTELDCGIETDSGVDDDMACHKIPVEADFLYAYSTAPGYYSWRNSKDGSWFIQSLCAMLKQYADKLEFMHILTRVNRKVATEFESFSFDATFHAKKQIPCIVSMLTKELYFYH
Chain of UniProt P27338 (whole entry, looked up): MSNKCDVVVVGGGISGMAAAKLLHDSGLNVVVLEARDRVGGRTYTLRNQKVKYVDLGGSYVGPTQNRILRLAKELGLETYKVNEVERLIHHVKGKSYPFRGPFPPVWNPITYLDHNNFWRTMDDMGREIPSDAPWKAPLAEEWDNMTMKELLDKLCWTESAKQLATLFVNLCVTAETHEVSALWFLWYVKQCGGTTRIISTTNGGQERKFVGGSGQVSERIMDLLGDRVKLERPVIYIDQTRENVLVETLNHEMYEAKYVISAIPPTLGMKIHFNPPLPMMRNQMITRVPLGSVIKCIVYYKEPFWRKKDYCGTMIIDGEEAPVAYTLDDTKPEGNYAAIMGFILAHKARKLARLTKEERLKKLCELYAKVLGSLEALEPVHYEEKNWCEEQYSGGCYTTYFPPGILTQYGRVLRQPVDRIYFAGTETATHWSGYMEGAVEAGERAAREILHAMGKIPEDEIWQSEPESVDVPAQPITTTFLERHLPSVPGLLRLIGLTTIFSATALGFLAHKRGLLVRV
Chain of UniProt Q02750 (whole entry, looked up): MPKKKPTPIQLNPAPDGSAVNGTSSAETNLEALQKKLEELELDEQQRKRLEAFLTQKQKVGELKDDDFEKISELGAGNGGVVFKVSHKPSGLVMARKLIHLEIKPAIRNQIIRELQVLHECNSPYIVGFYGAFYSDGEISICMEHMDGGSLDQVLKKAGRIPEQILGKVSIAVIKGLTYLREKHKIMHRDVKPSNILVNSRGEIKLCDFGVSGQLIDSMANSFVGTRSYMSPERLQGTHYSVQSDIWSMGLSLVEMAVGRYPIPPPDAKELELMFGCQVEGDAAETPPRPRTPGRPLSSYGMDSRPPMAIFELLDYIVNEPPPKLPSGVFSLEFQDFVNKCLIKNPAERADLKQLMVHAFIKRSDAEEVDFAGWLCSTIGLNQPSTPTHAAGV
Chain of UniProt Q96RU2 (whole entry, looked up): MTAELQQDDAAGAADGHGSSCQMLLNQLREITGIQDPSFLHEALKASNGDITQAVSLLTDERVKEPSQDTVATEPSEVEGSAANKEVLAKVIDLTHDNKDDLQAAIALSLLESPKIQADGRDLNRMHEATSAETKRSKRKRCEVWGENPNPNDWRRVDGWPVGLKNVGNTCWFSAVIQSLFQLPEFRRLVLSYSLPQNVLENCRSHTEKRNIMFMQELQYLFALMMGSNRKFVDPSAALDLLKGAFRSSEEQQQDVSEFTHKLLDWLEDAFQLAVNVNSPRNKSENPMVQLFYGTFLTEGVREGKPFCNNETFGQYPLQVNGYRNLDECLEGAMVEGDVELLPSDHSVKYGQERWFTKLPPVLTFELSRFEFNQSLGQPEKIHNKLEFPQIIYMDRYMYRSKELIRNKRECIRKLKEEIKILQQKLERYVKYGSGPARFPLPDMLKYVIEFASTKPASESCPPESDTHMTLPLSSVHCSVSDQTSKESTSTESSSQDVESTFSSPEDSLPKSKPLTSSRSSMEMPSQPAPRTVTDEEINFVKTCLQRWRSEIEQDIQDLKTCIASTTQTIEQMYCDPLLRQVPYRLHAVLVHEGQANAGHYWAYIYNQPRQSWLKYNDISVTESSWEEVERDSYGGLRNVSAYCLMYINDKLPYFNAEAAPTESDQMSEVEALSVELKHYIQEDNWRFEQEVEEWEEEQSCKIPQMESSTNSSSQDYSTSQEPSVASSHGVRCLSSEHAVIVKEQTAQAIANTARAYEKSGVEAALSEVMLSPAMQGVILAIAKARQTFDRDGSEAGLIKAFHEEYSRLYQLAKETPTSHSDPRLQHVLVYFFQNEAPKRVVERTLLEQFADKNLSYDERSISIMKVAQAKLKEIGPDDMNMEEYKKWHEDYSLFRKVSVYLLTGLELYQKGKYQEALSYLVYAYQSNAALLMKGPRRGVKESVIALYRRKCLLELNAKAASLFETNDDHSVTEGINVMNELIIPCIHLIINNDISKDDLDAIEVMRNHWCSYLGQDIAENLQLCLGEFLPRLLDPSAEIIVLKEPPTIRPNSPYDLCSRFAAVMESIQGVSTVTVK
Chain of UniProt Q9UGM1 (whole entry, looked up): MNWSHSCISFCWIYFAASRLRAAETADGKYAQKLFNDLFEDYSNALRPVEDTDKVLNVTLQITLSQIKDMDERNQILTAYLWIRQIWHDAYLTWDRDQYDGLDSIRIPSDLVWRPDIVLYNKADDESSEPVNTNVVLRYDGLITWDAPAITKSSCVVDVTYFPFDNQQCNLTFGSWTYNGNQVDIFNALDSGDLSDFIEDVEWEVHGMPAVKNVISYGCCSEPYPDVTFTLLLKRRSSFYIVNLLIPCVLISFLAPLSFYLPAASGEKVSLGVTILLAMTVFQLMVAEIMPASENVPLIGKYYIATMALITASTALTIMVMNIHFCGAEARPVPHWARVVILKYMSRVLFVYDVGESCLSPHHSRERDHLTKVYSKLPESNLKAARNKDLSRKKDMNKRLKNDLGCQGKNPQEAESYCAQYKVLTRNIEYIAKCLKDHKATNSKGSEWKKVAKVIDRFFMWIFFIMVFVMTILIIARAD
Chain of UniProt P52895 (whole entry, looked up): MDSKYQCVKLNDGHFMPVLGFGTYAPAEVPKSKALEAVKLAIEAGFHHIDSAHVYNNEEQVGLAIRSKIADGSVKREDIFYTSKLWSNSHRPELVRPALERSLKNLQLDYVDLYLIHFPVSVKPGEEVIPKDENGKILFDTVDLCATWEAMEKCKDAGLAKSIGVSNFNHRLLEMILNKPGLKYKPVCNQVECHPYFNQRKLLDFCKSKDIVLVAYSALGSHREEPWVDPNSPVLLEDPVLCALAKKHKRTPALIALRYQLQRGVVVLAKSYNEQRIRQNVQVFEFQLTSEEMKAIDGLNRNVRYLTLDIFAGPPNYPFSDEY

SMILES	target	assay	setting	measurement	value
CCC(C(=O)Nc1cc(NC2COC2)ccc1C)n1cc(Br)cc2nc(SCc3ccc(F)cc3)nc1-2 (centres unmarked)	PRSS1	enzyme activity, inhibitor		IC50	> 100 µM
[2H]c1c([2H])c([C@]2([2H])CCCN2C(=O)C(C)(C)Oc2ccc3cn[nH]c3c2)c([2H])c([2H])c1C([2H])([2H])[2H]	Dual specificity mitogen-activated protein kinase kinase 1 (MAP2K1, Homo sapiens, UniProt Q02750)	binding, competition with immobilised ligand	1 µM	remaining binding	85%
c1csc(-c2noc(C[C@H]3CN4CCC3CC4)n2)c1	Neuronal acetylcholine receptor subunit alpha-9 (CHRNA9, Homo sapiens, UniProt Q9UGM1)	ion current, two-electrode voltage clamp	oocytes	IC50	2.6 µM
O=C(O)C1=C[C@H](O)[C@@H](NCc2ccc(-c3ccccc3)cc2)[C@H]([C@H](O)[C@H](O)CO)O1	NEU1	enzyme activity, inhibitor		IC50	> 500 µM
O=C(O)C(C(F)(F)F)C(F)(F)F	Aldo-keto reductase family 1 member C2 (AKR1C2, Homo sapiens, UniProt P52895)	enzyme activity, inhibitor, fluorescence		IC50	> 50 µM
Cn1nccc1[C@]1(CNC(=O)c2ccc(F)c(F)c2-c2ccc(C(F)(F)F)cc2)NC(=O)NC1=O	Caspase-3 (CASP3, Homo sapiens, UniProt P42574)	enzyme activity, inhibitor		IC50	> 100 µM
CN1CC[C@@H]2CN(c3nccc(-c4cnn5ncccc45)n3)C[C@@H]21	Dual specificity tyrosine-phosphorylation-regulated kinase 1A (DYRK1A, Homo sapiens, UniProt Q13627)	cell-free assay, TR-FRET		IC50	2.04 µM
CCN[C@H]1[C@H]([C@H](O)[C@H](O)CO)OC(C(=O)O)=C[C@@H]1O	NEU1	enzyme activity, inhibitor		IC50	91 µM
CSCC[C@H](NC(=O)[C@@H](NC(=O)[C@H](CC(C)C)NC(=O)[C@@H](NC(=O)[C@H](CCCCN)NC(=O)[C@H](CC(N)=O)NC(=O)[C@H](Cc1ccc(O)cc1)NC(=O)[C@H](CCSC)NC(=O)[C@@H](N)CCCNC(=N)N)[C@@H](C)O)[C@@H](C)O)C(=O)O	HLA class I histocompatibility antigen, A alpha chain	cell-free assay		IC50	0.048 µM
CCC(C(=O)Nc1cc(NC2CCNC2)ccc1C)n1cc(Br)cc2nc(SCc3ccc(F)cc3)nc1-2 (centres unmarked)	F2	enzyme activity, inhibitor		IC50	> 100 µM
CC(C)C[C@H](NC(=O)OCc1ccccc1)C(=O)N[C@@H](CC(C)C)C(=O)N[C@@H](CC(C)C)C(=O)C(=O)Nc1cccc2cnccc12	Proteasome component C5/PSMB5 chymotrypsin-like site	enzyme activity in cells, inhibitor		IC50	0.0631 µM
O=C(N1CCC2(CC1)C[C@H](CN1CCCCS1(=O)=O)CCO2)C1(c2ccccc2)CCCC1	ATP-dependent RNA helicase DDX1 (Homo sapiens, UniProt Q92499)	ATPase activity, inhibitor		IC50	> 50 µM
CC(C)[C@H](NC(=O)[C@H](Cc1c[nH]cn1)NC(=O)[C@@H]1CCCN1C(=O)[C@H](Cc1ccccc1)NC(=O)[C@H](C)NC(=O)[C@@H](N)Cc1c[nH]cn1)C(=O)N[C@H](C(=O)N[C@H](C(=O)N[C@@H](Cc1ccccc1)C(=O)O)[C@@H](C)O)C(C)C	HLA class I histocompatibility antigen, A alpha chain	cell-free assay		IC50	13.6 µM
O=C(/C=C\c1ccccc1)O[C@H]1[C@@H]2C=CO[C@@H](O[C@@H]3O[C@H](CO)[C@@H](O)[C@H](O)[C@H]3O)[C@@H]2[C@@]2(CO)O[C@@H]12	Amine oxidase [flavin-containing] B (MAOB, Homo sapiens, UniProt P27338)	enzyme activity, inhibitor, fluorescence		IC50	46.8 µM
CC(=O)N(C)[C@H]1[C@H]([C@H](O)[C@H](O)CO)OC(C(=O)O)=C[C@@H]1O	NEU1	enzyme activity, inhibitor		IC50	> 500 µM
CSCC[C@H](NC(=O)[C@@H](N)Cc1ccc(O)cc1)C(=O)N[C@@H](CC(=O)O)C(=O)N1CCC[C@H]1C(=O)N[C@H](C(=O)N1CCC[C@H]1C(=O)N[C@@H](CC(C)C)C(=O)N[C@@H](CCC(N)=O)C(=O)N[C@@H](Cc1ccccc1)C(=O)O)C(C)C	HLA class I histocompatibility antigen, A alpha chain	cell-free assay		IC50	22.3 µM
CC(C)C[C@H](NC(=O)[C@H](Cc1c[nH]c2ccccc12)NC(=O)[C@H](C)NC(=O)OCc1ccccc1)C(=O)C(=O)Nc1ccccc1	Proteasome component C5/PSMB5 chymotrypsin-like site	enzyme activity in cells, inhibitor		IC50	0.148 µM
CC(C)[C@H](N)C(=O)N1CCC[C@H]1C(=O)N[C@H](C(=O)N1CCC[C@H]1C(=O)N[C@@H](C)C(=O)O)C(C)C	Dipeptidyl peptidase 4 (DPP4, Homo sapiens, UniProt P27487)	enzyme activity, inhibitor, absorbance	pH 8	IC50	98.1 µM
CSCC[C@H](NC(=O)[C@H](CC(C)C)NC(=O)[C@@H](N)CCCNC(=N)N)C(=O)N[C@@H](CC(=O)O)C(=O)N[C@@H](CCCCN)C(=O)N1CCC[C@H]1C(=O)N[C@@H](Cc1c[nH]cn1)C(=O)N[C@@H](CO)C(=O)N[C@@H](Cc1ccc(O)cc1)C(=O)O	HLA class I histocompatibility antigen, A alpha chain	cell-free assay		IC50	0.041 µM
CCC(C(=O)Nc1cc(NC2CCNCC2)ccc1C)n1cc(Cl)cc2nc(SCc3ccc(F)cc3)nc1-2 (centres unmarked)	PRSS1	enzyme activity, inhibitor		IC50	> 100 µM
CC[C@H](C)[C@H](NC(=O)[C@@H](N)CCSC)C(=O)N[C@@H](Cc1ccccc1)C(=O)N[C@@H](CC(=O)O)C(=O)N[C@@H](CCCCN)C(=O)N1CCC[C@H]1C(=O)N[C@H](C(=O)N[C@@H](Cc1ccc(O)cc1)C(=O)N[C@@H](Cc1ccccc1)C(=O)O)C(C)C	HLA class I histocompatibility antigen, A alpha chain	cell-free assay		IC50	0.873 µM
CC(C)C[C@H](NC(=O)OCc1ccccc1)C(=O)N[C@@H](Cc1c[nH]c2ccccc12)C(=O)N[C@@H](CC(C)C)C(=O)C(=O)Nc1cccc(S(C)(=O)=O)c1	Proteasome component C5/PSMB5 chymotrypsin-like site	enzyme activity in cells, inhibitor		IC50	0.0562 µM
CC[C@H](C)[C@H](NC(=O)[C@H](Cc1c[nH]cn1)NC(=O)CNC(=O)[C@H](Cc1ccc(O)cc1)NC(=O)[C@H](CCC(N)=O)NC(=O)[C@@H](N)Cc1c[nH]cn1)C(=O)N[C@@H](CC(C)C)C(=O)N[C@@H](CCC(N)=O)C(=O)N[C@@H](Cc1ccc(O)cc1)C(=O)O	HLA class I histocompatibility antigen, A alpha chain	cell-free assay		IC50	0.0039 µM
CCC(C(=O)Nc1cc(NC2CCOCC2)ccc1C)n1cc(Br)cc2nc(SCc3ccc(F)cc3)nc1-2 (centres unmarked)	Ubiquitin carboxyl-terminal hydrolase 28 (USP28, Homo sapiens, UniProt Q96RU2)	enzyme activity, inhibitor		IC50	> 100 µM
CC(C)C[C@H](NC(=O)[C@@H](N)Cc1c[nH]cn1)C(=O)N[C@@H](Cc1ccccc1)C(=O)N1CCC[C@H]1C(=O)N[C@@H](CCCNC(=N)N)C(=O)N[C@H](C(=O)N[C@@H](Cc1c[nH]cn1)C(=O)N[C@@H](Cc1ccc(O)cc1)C(=O)N[C@@H](Cc1ccccc1)C(=O)O)[C@@H](C)O	HLA class I histocompatibility antigen, A alpha chain	cell-free assay		IC50	1.67 µM
CCC(C(=O)Nc1cc(NC2CNC2)ccc1C)n1cccc2nc(SCc3ccc(F)cc3)nc1-2 (centres unmarked)	F2	enzyme activity, inhibitor		IC50	> 100 µM

A few entries again:
SMILES	target	assay	setting	measurement	value
Cn1nccc1[C@]1(CNC(=O)c2ccc(F)c(F)c2-c2ccc(C(F)(F)F)cc2)NC(=O)NC1=O	Caspase-3 (CASP3, Homo sapiens, UniProt P42574)	enzyme activity, inhibitor		IC50	> 100 µM
CC(C)C[C@H](NC(=O)OCc1ccccc1)C(=O)N[C@@H](Cc1c[nH]c2ccccc12)C(=O)N[C@@H](CC(C)C)C(=O)C(=O)Nc1cccc(S(C)(=O)=O)c1	Proteasome component C5/PSMB5 chymotrypsin-like site	enzyme activity in cells, inhibitor		IC50	0.0562 µM
